Measured values collected from several papers.
Protocols differ between the studies behind these lines. Numbers after ± are the reported error. Where no end group is shown, it is not given here.
MAL12: Alpha-glucosidase MAL12 (MAL12, Saccharomyces cerevisiae S288c, UniProt P53341)
Chain of UniProt P53341 (whole entry, looked up): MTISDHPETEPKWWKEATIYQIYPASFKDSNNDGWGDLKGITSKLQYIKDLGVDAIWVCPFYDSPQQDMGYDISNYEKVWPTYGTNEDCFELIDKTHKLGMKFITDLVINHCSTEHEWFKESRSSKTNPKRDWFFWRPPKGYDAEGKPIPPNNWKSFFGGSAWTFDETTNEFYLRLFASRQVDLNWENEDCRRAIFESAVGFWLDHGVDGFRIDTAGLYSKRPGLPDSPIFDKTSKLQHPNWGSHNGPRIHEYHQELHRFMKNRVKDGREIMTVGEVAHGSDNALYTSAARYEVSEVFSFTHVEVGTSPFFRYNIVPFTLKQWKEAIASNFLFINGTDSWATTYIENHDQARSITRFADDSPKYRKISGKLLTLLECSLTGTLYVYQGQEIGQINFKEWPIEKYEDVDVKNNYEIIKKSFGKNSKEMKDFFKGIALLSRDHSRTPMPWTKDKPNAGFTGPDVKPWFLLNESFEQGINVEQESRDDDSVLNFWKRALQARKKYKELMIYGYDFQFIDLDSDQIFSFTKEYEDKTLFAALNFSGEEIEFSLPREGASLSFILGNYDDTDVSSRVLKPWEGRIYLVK
WWOX WW1 domain: WW domain-containing oxidoreductase, WW1 domain (WWOX, Homo sapiens, UniProt Q9NZC7)
Chain of UniProt Q9NZC7 (whole entry, unmodified, looked up): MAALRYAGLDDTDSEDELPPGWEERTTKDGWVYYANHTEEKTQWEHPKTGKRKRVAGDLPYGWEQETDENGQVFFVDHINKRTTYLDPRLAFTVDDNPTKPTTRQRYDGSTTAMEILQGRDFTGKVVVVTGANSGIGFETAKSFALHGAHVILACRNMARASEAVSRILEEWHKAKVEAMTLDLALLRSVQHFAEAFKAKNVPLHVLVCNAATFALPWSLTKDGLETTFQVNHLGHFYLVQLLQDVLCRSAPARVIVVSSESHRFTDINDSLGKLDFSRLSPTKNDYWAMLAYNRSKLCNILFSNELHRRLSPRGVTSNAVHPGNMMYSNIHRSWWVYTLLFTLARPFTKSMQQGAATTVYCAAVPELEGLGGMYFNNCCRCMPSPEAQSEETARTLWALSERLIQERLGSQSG
HBA1 with sickle beta chain: Hemoglobin subunit alpha, with sickle beta chain (HBA1, Homo sapiens, UniProt P69905)
Chain of UniProt P69905 (whole entry, looked up): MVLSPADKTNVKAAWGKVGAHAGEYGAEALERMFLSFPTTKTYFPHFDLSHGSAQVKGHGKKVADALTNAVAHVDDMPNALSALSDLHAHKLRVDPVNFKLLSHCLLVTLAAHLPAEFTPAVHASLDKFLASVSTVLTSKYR
SCN9A: Sodium channel protein type 9 subunit alpha (SCN9A, Homo sapiens, UniProt Q15858)
Chain of UniProt Q15858 (whole entry, looked up): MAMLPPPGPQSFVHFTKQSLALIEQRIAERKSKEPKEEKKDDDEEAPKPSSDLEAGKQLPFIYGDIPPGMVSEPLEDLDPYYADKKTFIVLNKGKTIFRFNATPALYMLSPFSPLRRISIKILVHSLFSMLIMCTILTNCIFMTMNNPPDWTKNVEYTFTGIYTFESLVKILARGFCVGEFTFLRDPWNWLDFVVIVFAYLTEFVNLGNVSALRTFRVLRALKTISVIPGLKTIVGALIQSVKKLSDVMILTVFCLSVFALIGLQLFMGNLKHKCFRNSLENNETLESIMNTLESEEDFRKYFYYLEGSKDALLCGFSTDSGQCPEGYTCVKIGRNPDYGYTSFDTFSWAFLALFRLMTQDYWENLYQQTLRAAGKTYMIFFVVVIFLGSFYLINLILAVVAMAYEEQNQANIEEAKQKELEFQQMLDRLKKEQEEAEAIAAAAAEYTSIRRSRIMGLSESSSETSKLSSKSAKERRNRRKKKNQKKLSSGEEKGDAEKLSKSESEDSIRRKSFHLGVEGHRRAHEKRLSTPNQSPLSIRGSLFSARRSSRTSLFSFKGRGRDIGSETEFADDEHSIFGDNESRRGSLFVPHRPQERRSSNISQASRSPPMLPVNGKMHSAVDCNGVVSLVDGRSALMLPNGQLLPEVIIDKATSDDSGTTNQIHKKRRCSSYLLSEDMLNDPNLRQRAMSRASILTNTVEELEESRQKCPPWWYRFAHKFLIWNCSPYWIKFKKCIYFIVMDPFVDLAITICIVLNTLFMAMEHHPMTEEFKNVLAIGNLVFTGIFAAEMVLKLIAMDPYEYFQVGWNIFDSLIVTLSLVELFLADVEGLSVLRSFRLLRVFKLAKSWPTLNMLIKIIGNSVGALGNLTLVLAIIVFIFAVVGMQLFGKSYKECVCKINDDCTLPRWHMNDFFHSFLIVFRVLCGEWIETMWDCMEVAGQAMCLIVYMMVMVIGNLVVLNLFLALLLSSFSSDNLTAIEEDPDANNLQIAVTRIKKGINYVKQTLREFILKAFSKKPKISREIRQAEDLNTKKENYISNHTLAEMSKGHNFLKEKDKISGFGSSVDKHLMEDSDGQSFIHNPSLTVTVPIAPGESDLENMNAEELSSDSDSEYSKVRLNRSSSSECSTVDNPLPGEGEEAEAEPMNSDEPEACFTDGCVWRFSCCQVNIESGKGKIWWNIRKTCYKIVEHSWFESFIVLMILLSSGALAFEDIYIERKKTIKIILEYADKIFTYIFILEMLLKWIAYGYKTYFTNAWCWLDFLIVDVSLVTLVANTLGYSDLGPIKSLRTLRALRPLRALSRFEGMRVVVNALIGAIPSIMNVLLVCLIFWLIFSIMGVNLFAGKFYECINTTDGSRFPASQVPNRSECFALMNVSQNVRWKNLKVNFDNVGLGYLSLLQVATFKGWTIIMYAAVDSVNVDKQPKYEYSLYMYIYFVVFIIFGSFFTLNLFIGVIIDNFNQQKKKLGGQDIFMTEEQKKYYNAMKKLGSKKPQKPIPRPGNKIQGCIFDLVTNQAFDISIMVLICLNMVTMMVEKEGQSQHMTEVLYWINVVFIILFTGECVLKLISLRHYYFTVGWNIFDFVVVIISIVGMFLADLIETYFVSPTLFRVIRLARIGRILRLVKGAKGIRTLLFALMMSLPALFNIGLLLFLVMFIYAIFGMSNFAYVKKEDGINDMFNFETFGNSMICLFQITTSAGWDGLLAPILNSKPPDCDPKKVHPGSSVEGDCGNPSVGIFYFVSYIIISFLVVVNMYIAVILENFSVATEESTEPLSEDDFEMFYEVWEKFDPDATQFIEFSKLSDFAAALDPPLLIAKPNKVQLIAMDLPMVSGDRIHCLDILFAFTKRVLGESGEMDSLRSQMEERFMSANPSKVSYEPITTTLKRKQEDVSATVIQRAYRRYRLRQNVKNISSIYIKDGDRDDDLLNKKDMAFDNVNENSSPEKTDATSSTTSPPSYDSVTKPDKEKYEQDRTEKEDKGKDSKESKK
T1: G-quadruplex DNA (Homo sapiens); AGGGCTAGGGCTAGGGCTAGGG
B1: disulfide; chain GLIHQYCQGYWRHVPPSPREAPGAPRSPEPDQKKPRNRRHHPPDT (disulfide (positions not given here))
Chain of UniProt P0DMV8 (whole entry, looked up): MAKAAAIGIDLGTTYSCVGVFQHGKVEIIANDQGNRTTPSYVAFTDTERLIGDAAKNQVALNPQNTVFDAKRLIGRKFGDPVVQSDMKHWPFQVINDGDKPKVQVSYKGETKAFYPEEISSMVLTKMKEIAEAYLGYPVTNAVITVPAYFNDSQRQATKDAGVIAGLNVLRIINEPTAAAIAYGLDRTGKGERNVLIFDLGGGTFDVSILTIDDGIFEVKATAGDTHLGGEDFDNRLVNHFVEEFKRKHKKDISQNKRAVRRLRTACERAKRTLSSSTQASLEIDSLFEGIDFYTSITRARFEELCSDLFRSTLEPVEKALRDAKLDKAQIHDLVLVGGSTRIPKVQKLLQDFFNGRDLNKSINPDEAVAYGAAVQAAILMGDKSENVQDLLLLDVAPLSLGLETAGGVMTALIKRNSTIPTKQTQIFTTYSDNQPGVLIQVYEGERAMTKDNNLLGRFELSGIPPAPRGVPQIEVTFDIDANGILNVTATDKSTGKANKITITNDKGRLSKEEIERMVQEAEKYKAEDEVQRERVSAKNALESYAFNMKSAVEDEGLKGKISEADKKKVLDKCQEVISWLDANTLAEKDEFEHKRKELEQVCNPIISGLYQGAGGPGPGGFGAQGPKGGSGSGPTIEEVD
Chain of UniProt P01901 (whole entry, looked up): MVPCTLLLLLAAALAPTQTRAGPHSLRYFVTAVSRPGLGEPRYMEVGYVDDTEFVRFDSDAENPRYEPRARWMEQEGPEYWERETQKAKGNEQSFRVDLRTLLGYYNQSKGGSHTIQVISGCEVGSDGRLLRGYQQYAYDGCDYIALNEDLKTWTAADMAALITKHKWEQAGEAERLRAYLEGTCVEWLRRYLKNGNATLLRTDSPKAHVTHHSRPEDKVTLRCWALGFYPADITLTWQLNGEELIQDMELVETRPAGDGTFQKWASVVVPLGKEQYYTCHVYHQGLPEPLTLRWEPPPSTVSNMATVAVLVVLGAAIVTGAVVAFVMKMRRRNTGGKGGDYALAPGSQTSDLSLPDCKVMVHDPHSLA
Chain of UniProt P52564 (whole entry, unmodified, looked up): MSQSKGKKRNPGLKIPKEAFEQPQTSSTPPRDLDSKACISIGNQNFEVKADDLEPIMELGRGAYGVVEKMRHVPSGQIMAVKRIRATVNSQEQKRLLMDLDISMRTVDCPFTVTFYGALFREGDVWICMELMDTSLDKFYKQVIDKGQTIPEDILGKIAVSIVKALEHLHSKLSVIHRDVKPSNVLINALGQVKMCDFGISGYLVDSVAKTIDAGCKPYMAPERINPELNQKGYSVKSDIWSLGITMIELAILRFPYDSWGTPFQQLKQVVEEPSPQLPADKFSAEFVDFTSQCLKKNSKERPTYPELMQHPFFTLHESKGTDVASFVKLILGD
Chain of UniProt Q02083 (whole entry, looked up): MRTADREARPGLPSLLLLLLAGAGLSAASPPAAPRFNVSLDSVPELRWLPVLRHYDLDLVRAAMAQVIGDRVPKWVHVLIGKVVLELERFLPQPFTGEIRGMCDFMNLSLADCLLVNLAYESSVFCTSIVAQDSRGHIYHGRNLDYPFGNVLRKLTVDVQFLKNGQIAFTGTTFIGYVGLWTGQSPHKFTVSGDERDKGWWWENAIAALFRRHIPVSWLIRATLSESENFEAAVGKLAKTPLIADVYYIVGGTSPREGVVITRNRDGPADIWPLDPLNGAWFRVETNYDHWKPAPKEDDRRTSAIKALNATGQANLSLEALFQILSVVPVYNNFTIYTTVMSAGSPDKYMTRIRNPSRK

CC[C@]1(O)C[C@H]2CN(CCc3c([nH]c4ccccc34)[C@@](C(=O)OC)(c3cc4c(cc3OC)N(C=O)[C@H]3[C@@](O)(C(=O)OC)[C@H](OC(C)=O)[C@]5(CC)C=CCN6CC[C@]43[C@@H]65)C2)C1
inhibition (SLC22A5 (Homo sapiens, UniProt O76082); transporter uptake, inhibitor; 50 µM): 69.4%

C[n+]1cc(NC(=O)c2ccc3ccc4ccc(C(=O)Nc5cc6ccccc6[n+](C)c5)nc4c3n2)cc2ccccc21
Kd (T1, G-quadruplex DNA (Homo sapiens); Cy5 fluorescence quenching titration; pH 7.2, KCl 100 mM, first transition): 16.8 nM

CC/C=C\CCOC(C)=O
remaining 1-NPN fluorescence (chemosensory protein 3 (Chilo suppressalis, UniProt V9PY40); binding, competitive ligand, fluorescence competitive binding; highest concentration tested, pH 7.4, protein 2 µM, with: 1-NPN 2 µM; baseline: no ligand): 65 ± 2.53%

COc1ccc2c(=O)c(OC)c(-c3ccccc3)oc2c1
inhibition (MAL12; enzyme activity, inhibitor, absorbance; 50 µM): 23.2%

O=C1/C(=C/c2ccc(O)c(O)c2)Oc2cc(O)cc(O)c21
bimolecular quenching constant (Xanthine dehydrogenase/oxidase, oxidase form (XDH, Bos taurus, UniProt P80457); intrinsic fluorescence quenching; 298, 304, 310 K): > 2e+10 L/mol/s

CC(C)C[C@H](NC(=O)[C@@H](NC(=O)[C@@H](N)[C@@H](C)O)C(C)C)C(=O)N1CCC[C@H]1C(=O)N1CCC[C@H]1C(=O)N1CCC[C@H]1C(=O)N1CCC[C@H]1C(=O)N[C@@H](Cc1ccc(O)cc1)C(=O)N[C@@H](CCCNC(=N)N)C(=O)N[C@@H](Cc1c[nH]cn1)C(=O)N[C@@H](C)C(=O)N[C@@H](CC(N)=O)C(=O)O
binding enthalpy ΔH (WWOX WW1 domain; binding to WW1 domain, isothermal titration calorimetry; concentration not given, pH 7.0, 25 °C): -4.78 ± 0.26 kcal/mol

CC1=C(C(=O)OCc2ccccc2)C(c2ccc(-c3ccccc3)cc2)N(Cc2ccc(-c3nnn[nH]3)cc2)C(=O)N1 (stereo not shown)
fold change in activity (HSPA1A (Homo sapiens, UniProt P0DMV8); ATPase activity, inhibitor; 100 µM, without Hsp40; baseline: DMSO, negative means inhibition): -1.2 fold

CCCCCCCCC(=O)N[C@H]1CCNC1=O
IC50 (NAAA (Homo sapiens, UniProt Q02083); enzyme activity, inhibitor, fluorogenic PAMCA hydrolysis; pH 4.5, with: 5 µM PAMCA): inactive

Ac-RRWRIFKFISAHNP-NH2 (N-acetyl, C-amide)
phosphorylation (MAP2K6 (Homo sapiens, UniProt P52564, S207E/T211E); substrate, HPLC and MALDI-TOF MS; peptide; 100 to 500 µM, 40 h, pH 7.5, room temperature, with: ATP 1 mM): not detected

O=Cc1ccc(CO)o1
P50 change (HBA1 with sickle beta chain; oxygen affinity; sickle red cell lysate; 2000 µM; baseline: untreated): 33.4 ± 0.9%

CC(=O)N[C@H]1[C@H]([C@H](O)[C@H](O)CO)OC(C(=O)O)=C[C@@H]1O
IC50 ratio (Sialidase A (nanA, Streptococcus pneumoniae, UniProt P62575); neuraminidase activity, fluorescence; baseline: cpd over oseltamivir): ~10 fold

COC(=O)c1scc(C)c1NC(=O)C(C)N1CCN(CCO)CC1 (stereo not shown)
capacity factor k′ (SCN9A; cell membrane chromatography; higher = stronger binding): 4.6

Cc1[nH]c(N)nc1CCC(=O)c1cc(F)cc(F)c1
fast inhibition component (HVCN1 (Homo sapiens, UniProt Q96D96, F150A); proton current, inside-out patch; 100 nM; baseline: wild type): increased

CC(C)C[C@H](NC(=O)[C@@H](NC(=O)[C@@H](N)[C@@H](C)O)C(C)C)C(=O)N1CCC[C@H]1C(=O)N1CCC[C@H]1C(=O)N1CCC[C@H]1C(=O)N1CCC[C@H]1C(=O)N[C@@H](Cc1ccc(O)cc1)C(=O)N[C@@H](CCCNC(=N)N)C(=O)N[C@@H](Cc1c[nH]cn1)C(=O)N[C@@H](CCCNC(=N)N)C(=O)N[C@@H](CC(N)=O)C(=O)O
TΔS (WW domain-containing oxidoreductase, WW1-WW2 tandem domains (WWOX, Homo sapiens, UniProt Q9NZC7); binding, ITC; pH 7.0, 25 °C): 0.7 ± 0.37 kcal/mol

CC/C=C/[C@H](CC)C/C(=C/[C@@]1(CC)C[C@H](CC)[C@H](CC(=O)O)OO1)CC
remaining binding (EDNRA (Homo sapiens, UniProt P25101); ligand displacement, radioligand; 100 µg/mL, 30 min): 56%

Cc1cn([C@H]2C[C@H](N=[N+]=[N-])[C@@H](CO[P@](=O)(O)O[P@](=O)(O)OP(=O)(O)O)O2)c(=O)[nH]c1=O
minimum inhibitory concentration (Gag-Pol polyprotein, reverse transcriptase (gag-pol, Human immunodeficiency virus 1, UniProt P03366); reverse transcriptase DNA synthesis, inhibitor, CRISPR-Cas12a fluorescence; 90 min): > 0.1 µM

CC(C)(C)OCc1ccc(C=O)o1
P50 change (HBA1 with sickle beta chain; oxygen affinity; sickle red cell lysate; 2000 µM; baseline: untreated): 24 ± 5.6%

SLFPVIYTQM
MFI increase (H-2 class I histocompatibility antigen, K-B alpha chain, 26 (H2-K1, Mus musculus, UniProt P01901); H2-K binding, flow cytometry; peptide, RMA-S; 10 µg per 100 µL, 3 h): 377%

B1
sedimentation coefficient, monomer peak (Neuropilin-2 (NRP2, Homo sapiens, UniProt O60462); sedimentation velocity AUC; 2.5-fold molar excess, pH 7.5, 4 °C, 8 µM b1b2 domain): 3.04 S

COC(=O)c1scc(C)c1NC(=O)C(C)N1CCSCC1 (stereo not shown)
capacity factor k′ (SCN9A; cell membrane chromatography; higher = stronger binding): 6.8

CQQEPDDLKQKACES
patients with IgE binding (human IgE; peptide microarray; peptide, walnut-allergic patient sera; concentration not given, 16 h, 4 °C): 8%

CC1=C(C(=O)OCc2ccccc2)C(c2ccc(-c3ccccc3)cc2)NC(=O)N1CCCCCc1nnn[nH]1 (stereo not shown)
fold change in activity (Heat shock 70 kDa protein 1A, with Hdj2 (HSPA1A, Homo sapiens, UniProt P0DMV8); ATPase activity, inhibitor; 100 µM, Hsp40-stimulated activity, with: Hdj2 Hsp70:Hsp40 1:0.5; baseline: DMSO, negative means inhibition): -1.3 fold

COC(=O)c1scc(C)c1NC(=O)C(C)N1CCN(c2ccccc2)CC1 (stereo not shown)
capacity factor k′ (SCN9A; cell membrane chromatography; higher = stronger binding): 29.2

C[C@]12C=CC(=O)C=C1CC[C@@H]1C2=CC[C@]2(C)[C@@H](C(=O)CN3CCN(c4cc(N5CCCC5)nc(N5CCCC5)n4)CC3)CC[C@@H]12.O=C(O)/C=C\C(=O)O
maximal response (RORA (Homo sapiens, UniProt P35398); AlphaScreen; baseline: 25 µM 7α-hydroxycholesterol): 109%

RCTKLEYDPRCVYDP
patients with IgE binding (human IgE; peptide microarray; peptide, peanut/walnut-allergic patient sera; concentration not given, 16 h, 4 °C): 81%

CC[C@H](C)[C@H](NC(=O)[C@@H]1CCCN1C(=O)[C@@H]1CCCN1C(=O)[C@@H]1CCCN1C(=O)[C@@H](NC(=O)[C@H](CC(N)=O)NC(=O)[C@@H](N)Cc1ccccc1)[C@@H](C)CC)C(=O)N[C@@H](Cc1ccc(O)cc1)C(=O)N[C@H](C(=O)N[C@@H](CO)C(=O)N[C@@H](CCCNC(=N)N)C(=O)N[C@@H](C)C(=O)O)[C@@H](C)O
ΔH (WWOX WW1 domain; binding, ITC; pH 7.0, 25 °C): -6.88 ± 0.48 kcal/mol

COc1c(O)cc(O)c2c(=O)cc(-c3ccc(O)cc3)oc12
inhibition (MAL12; enzyme activity, inhibitor, absorbance; 50 µM): 94.9%

CSc1ccc(/C=C2/C(C)=C(CC(=O)O)c3cc(F)ccc32)cc1
IC50 (PDE1C (Homo sapiens, UniProt Q14123); cGMP hydrolysis, inhibitor; up to 200 µM): inactive

O=C(O)/C=C/c1ccccc1O
UV signal reduction (PY04617 (Plasmodium yoelii, UniProt Q7RFT5); ultrafiltration HPLC-UV; 0.1 mM, pH 7.25, 4 °C, 6.5% DMSO, with: methionine competitor): 75.9 ± 0.3%

CC(=O)N[C@@H](Cc1cccs1)C(=O)N[C@H](Cc1ccccc1)C(=O)N[C@@H](CCCNC(=N)N)C(=O)N[C@@H](Cc1csc2ccccc12)C(N)=O
agonist and antagonist activity (Melanocortin receptor 3 (Mus musculus, UniProt P33033); receptor activity, agonist, cell-based; up to 100 µM, Schild antagonism analysis): inactive

COc1c(O)ccc2c(=O)cc(-c3ccccc3)oc12
inhibition (MAL12; enzyme activity, inhibitor, absorbance; 50 µM): 42.7%
